Results collected from several papers.
Each line is one published result; not all experiments were run side by side. Several values in a cell are separate wells, animals, samples, runs or records.
Cell line: HepG2

SMILES | test | conditions | CC50
CC(F)(F)CCCNC[C@@H](O)c1cc(Cl)cc2c1-c1ccc(Cl)cc1C2 | cell growth or viability | 48 h | 2.7 µM
CC1(C)C(NC(=O)C(=NOC2(C(=O)O)CC2)c2csc(N)n2)C(=O)N1OS(=O)(=O)O (stereo not shown) | cell growth or viability |  | > 100 µM
CCc1cc(CCC(=O)O)nc(-c2nc(=O)c3ccccc3s2)c1 | cell growth or viability |  | > 25 µM
Cc1ccc(S(=O)(=O)n2cc3c4c2C(=O)C(N)=CC4=NCC3)cc1 | cell growth or viability, MTT | 72 h | 1.5 µM
O=C1c2cc(Cl)ccc2-n2c1nc1ccc(Cl)cc1c2=O | cell growth or viability, ATP luminescence |  | 11 to 24 µM
Cc1cc(C(=O)Nc2nc3cccc(C)c3n2[C@H]2CCCCN(C(=O)/C=C/CN(C)C)C2)ccn1 | cytotoxicity | 4 days, single replicate | 6.39 µM and 9.53 µM and 8.75 µM and 9.96 µM and 14.6 µM
COC1=CC2=NCCc3c[nH]c(c32)C1=O | cell growth or viability, MTT | 72 h | 25 µM
CCOC(=O)c1cn(CC(c2c[nH]c3cc(Br)ccc23)c2c[nH]c3cc(Br)ccc23)c(C)c1C(=O)OC | cell growth or viability, MTS | 24 h | > 20 µM
Cc1ccc2c(c1)nc(NC(=O)c1cccc(C(F)(F)F)c1)n2[C@H]1CC[C@H](N)CC1 | cytotoxicity | 4 days, mean value | 2.35 µM
COc1ccc(CCNC2=CC3=[N+](C)CCc4c[nH]c(c43)C2=O)cc1 | cell growth or viability, MTT | 72 h | 0.3 µM
O[C@H](CNCCNC(c1ccccc1)c1ccccc1)c1cc(Cl)cc2c1-c1ccc(Cl)cc1C2 | cell growth or viability | 48 h | 3 µM
Cc1ccc(S(=O)(=O)n2cc3c4c2C(=O)C(NCCc2ccc(O)cc2)=CC4=NCC3)cc1 | cell growth or viability, MTT | 72 h | 1.25 µM
CCc1cc(CCN)nc(-c2nc(=O)c3ccccc3s2)c1 | cell growth or viability |  | > 25 µM

A few entries again:
SMILES | test | conditions | CC50
CCOC(=O)c1cn(CC(c2c[nH]c3cc(Br)ccc23)c2c[nH]c3cc(Br)ccc23)c(C)c1C(=O)OC | cell growth or viability, MTS | 24 h | > 20 µM
